Assay results of several laboratories.
Numbered parts are unrelated; each lists some results of a single study. Changes are numbered by the printed parent chain.
Chain of UniProt Q9Y6M4 (whole entry, looked up): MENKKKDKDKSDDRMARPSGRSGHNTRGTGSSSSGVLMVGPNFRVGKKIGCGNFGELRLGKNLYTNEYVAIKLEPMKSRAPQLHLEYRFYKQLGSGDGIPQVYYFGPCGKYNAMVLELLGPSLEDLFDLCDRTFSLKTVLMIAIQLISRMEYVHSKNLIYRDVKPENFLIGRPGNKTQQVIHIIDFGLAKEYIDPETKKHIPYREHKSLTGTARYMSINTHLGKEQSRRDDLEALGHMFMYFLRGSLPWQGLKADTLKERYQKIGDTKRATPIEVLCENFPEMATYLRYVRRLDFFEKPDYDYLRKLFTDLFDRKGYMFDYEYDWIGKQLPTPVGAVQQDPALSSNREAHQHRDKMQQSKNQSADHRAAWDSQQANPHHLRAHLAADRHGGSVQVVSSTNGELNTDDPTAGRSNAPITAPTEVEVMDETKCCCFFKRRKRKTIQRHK
Chain of UniProt P52333 (whole entry, looked up): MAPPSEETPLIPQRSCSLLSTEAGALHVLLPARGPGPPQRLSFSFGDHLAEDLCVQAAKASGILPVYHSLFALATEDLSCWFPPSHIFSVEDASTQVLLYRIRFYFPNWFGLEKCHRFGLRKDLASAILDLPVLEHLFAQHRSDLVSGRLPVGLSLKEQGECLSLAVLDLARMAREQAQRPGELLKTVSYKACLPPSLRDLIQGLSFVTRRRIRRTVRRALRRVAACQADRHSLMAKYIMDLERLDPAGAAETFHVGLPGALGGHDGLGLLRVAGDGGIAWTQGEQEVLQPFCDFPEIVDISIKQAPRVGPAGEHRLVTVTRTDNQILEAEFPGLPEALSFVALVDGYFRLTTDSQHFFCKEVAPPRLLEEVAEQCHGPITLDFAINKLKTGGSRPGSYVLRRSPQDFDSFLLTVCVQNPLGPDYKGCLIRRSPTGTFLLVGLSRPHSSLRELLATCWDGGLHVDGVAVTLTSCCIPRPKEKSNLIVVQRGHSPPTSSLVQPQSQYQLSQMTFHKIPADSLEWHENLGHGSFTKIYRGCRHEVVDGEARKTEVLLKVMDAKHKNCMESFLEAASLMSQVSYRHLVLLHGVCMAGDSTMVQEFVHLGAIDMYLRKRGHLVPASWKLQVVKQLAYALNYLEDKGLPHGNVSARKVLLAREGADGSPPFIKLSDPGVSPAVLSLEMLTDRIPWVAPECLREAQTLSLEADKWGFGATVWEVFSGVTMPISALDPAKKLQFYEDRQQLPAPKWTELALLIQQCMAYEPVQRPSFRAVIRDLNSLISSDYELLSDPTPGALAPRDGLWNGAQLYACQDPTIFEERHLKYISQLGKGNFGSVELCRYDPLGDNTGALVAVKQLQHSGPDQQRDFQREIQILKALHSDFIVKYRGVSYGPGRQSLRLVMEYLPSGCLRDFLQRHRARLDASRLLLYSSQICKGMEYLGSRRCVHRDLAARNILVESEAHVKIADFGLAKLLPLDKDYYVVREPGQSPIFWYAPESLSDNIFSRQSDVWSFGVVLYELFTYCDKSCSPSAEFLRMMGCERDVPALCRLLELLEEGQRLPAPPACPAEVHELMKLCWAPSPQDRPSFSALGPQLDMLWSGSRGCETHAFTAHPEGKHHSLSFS
Chain of UniProt P42685 (whole entry, looked up): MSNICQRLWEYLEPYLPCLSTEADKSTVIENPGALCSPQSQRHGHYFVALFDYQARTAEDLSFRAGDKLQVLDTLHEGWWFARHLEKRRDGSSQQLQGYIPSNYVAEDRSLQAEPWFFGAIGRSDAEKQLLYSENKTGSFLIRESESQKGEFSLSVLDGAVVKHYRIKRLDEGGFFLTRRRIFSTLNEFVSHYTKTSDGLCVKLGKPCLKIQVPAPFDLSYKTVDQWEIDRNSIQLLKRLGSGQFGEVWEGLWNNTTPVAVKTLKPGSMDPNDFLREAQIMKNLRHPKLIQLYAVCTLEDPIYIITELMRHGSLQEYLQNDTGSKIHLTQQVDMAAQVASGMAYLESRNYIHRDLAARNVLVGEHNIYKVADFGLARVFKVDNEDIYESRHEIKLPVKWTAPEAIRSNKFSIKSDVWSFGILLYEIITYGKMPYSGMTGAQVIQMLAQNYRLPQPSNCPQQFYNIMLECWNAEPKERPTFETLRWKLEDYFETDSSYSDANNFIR
Chain of UniProt Q96PY6 (whole entry, looked up): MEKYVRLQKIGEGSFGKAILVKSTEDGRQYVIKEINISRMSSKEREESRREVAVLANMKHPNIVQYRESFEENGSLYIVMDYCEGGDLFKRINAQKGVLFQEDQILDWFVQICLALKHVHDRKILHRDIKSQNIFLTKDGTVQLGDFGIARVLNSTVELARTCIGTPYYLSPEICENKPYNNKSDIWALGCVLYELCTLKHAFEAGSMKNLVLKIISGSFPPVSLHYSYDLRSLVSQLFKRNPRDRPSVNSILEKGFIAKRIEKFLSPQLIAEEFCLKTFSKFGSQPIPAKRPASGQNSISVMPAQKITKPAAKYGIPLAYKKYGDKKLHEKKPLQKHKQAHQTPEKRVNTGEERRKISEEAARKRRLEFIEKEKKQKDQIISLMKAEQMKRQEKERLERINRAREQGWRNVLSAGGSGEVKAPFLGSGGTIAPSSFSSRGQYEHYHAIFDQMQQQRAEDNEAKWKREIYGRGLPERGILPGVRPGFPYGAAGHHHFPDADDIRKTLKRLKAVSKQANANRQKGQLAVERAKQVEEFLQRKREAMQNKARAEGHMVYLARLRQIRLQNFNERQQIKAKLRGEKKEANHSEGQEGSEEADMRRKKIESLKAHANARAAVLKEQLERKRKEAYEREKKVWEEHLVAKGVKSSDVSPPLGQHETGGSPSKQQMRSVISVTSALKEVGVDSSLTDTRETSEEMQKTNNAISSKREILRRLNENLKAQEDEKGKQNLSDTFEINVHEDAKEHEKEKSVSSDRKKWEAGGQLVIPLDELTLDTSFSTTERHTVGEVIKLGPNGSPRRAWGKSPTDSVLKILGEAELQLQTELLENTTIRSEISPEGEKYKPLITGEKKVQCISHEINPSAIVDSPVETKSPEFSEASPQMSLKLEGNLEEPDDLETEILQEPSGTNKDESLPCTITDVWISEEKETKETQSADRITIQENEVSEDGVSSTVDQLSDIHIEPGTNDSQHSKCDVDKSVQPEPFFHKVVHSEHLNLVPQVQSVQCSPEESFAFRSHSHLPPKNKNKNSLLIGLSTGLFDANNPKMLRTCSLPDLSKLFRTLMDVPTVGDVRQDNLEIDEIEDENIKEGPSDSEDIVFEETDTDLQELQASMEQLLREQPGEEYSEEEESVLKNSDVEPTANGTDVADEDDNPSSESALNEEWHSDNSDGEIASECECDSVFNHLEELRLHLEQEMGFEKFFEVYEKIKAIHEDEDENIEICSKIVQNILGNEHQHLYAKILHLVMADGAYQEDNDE
Chain of UniProt Q9H2G2 (whole entry, looked up): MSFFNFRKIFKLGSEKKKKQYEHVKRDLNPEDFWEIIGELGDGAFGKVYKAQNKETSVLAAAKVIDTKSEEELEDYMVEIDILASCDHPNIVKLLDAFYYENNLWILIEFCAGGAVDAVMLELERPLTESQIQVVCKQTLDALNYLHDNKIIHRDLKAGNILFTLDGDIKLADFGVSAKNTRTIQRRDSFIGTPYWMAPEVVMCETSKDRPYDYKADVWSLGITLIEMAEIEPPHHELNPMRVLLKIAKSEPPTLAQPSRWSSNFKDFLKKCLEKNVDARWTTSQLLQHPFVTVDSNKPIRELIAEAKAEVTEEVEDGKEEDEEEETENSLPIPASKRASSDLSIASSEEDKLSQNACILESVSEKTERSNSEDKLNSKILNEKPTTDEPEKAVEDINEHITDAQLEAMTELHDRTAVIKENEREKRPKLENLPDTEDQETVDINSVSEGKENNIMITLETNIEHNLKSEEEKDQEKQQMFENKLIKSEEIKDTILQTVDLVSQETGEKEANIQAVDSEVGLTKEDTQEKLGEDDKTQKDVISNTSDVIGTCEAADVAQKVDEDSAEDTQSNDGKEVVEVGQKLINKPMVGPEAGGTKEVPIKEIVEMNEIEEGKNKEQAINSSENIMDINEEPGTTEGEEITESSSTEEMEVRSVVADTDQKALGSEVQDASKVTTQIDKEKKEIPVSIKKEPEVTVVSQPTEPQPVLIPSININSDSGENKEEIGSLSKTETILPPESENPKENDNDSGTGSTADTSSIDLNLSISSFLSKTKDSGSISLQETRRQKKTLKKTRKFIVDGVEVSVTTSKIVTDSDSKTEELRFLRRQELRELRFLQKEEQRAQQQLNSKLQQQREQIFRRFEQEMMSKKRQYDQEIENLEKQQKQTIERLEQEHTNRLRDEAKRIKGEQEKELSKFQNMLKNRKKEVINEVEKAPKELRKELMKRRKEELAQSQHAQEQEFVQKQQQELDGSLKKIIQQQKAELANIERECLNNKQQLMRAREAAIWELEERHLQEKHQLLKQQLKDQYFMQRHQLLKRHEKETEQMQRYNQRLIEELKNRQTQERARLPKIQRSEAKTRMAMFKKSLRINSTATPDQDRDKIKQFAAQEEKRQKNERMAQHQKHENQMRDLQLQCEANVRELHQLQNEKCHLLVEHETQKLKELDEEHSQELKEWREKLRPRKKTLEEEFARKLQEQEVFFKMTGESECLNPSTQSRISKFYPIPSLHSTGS

Set 1
Target: CEBPE, bZIP domain (human)
Method: DHFR protein complementation
Medium: yeast
Setting: single substitutions, most at no-binding floor
Relative to: wild-type JUN-FOS pair
Reading: higher = stronger binding
Starting sequence: JUN, bZIP domain (human); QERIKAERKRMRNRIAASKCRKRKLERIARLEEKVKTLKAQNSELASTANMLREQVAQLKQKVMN; partner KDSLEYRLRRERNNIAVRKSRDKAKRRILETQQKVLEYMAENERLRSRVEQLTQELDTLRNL
`E44F` has a binding fitness of -1.42 natural log.
`R53S` gave a binding fitness of -0.936 natural log.
With `K36A` the binding fitness was -0.961 natural log.
For `A40F`, the binding fitness was -1.29 natural log.
`Q41R` gave a binding fitness of -1.3 natural log.
The binding fitness of `A57Q` is reported as -1.03 natural log.
The binding fitness of `V56Q` is reported as -1.52 natural log.
For `E54T`, the binding fitness was -1.23 natural log.

Set 2
Compound: COc1cc(-c2cn(C3CCc4ccccc4N(CC(F)(F)F)C3=O)nn2)ccc1-n1ccc(C)n1 (stereo not drawn)
Observed: cell-free assay
Method: competition with immobilised ligand
Tested at: 1 µM
For SLK (Homo sapiens, UniProt Q9H2G2): remaining binding read 100%.
CSNK1G3 (Homo sapiens, UniProt Q9Y6M4) — remaining binding: 86%.
For LRRK2 (Homo sapiens, UniProt Q5S007): remaining binding read 54%.
For RIOK1 (Homo sapiens, UniProt Q9BRS2): remaining binding read 100%.

Set 3
Compound: Nc1ncnc2c1cnn2-c1ccccc1
Observed: enzyme activity
Action: inhibitor
Tested at: 0.5 µM
Relative to: control
It gave 95.1% for remaining activity (ULK2 (Homo sapiens, UniProt Q8IYT8)).
It gave 93.4% for remaining activity (CSNK1G3 (Homo sapiens, UniProt Q9Y6M4)).
For MAP2K2 (Homo sapiens, UniProt P36507): remaining activity read 96.9%.
JAK3 (Homo sapiens, UniProt P52333) — remaining activity: 97.4%.
For FGFR1 (Homo sapiens, UniProt P11362): remaining activity read 93%.
NEK1 (Homo sapiens, UniProt Q96PY6) — remaining activity: 62.4%.
For FRK (Homo sapiens, UniProt P42685): remaining activity read 101%.
For FGFR3 (Homo sapiens, UniProt P22607): remaining activity read 97.9%.
For MAP3K14 (Homo sapiens, UniProt Q99558): remaining activity read 120%.
For MAP3K5 (Homo sapiens, UniProt Q99683): remaining activity read 100%.
For ACVR1B (Homo sapiens, UniProt P36896): remaining activity read 99.4%.
The remaining activity was 95.1% (CSNK1G2 (Homo sapiens, UniProt P78368)).
TAOK2 (Homo sapiens, UniProt Q9UL54) — remaining activity: 93%.

Set 4
Target: Interferon regulatory factor 7, full length, phosphomimetic (IRF7, Homo sapiens, UniProt Q92985, residues 1-503, S101K/S471D/S472D/S475D/S476D/S477D/S483D/S484D/S487D)
Chain of UniProt Q92985 (whole entry, unmodified, looked up): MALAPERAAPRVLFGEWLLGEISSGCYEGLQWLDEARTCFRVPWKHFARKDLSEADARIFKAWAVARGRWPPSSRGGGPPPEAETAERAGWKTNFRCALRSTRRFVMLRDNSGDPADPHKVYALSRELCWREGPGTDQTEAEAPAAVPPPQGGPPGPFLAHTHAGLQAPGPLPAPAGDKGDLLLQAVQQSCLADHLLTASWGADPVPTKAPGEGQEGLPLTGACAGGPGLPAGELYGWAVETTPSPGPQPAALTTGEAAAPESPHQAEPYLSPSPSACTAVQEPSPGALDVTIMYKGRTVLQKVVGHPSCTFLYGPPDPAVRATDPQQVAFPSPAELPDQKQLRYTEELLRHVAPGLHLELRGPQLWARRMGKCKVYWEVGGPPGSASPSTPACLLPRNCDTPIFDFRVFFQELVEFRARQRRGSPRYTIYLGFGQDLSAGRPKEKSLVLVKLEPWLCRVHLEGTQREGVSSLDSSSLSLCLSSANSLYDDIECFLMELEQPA
Method: protein-binding microarray
Form: double-stranded DNA, one strand shown
Medium: in vitro
Tested at: 250 nM
Setting: 60-bp whole probe
With: salmon DNA 0.4 mg/ml
Relative to: random background probes
Reading: higher = stronger binding
Constant ends, left off below: GCCTAGCAC … GTCTTGATTCGCTTGACGCTGCTG
`TTAGGTCTCCTTTTCCTATAGTGCTAG` gave a log fluorescence of 2.18 z-score.
The log fluorescence of `TTAGATATCTGGACTGGATTAGTGCTA` is reported as 0.045 z-score.
`TTAGGACTGTTTATCCTTTAGTGCTAG` has a log fluorescence of 0.502 z-score.
`TTAGGTTTCGACTATCAGTTAGTGCTA` gave a log fluorescence of 5.23 z-score.
`GACCATTTCGGGACTGGAGACGTGCTA` gave a log fluorescence of 0.825 z-score.
For `GACGGTATCGACACTGGGCACGTGCTA`, the log fluorescence was -0.661 z-score.
`TCATGGCTGACTTTGGAACTGTGCTAG` has a log fluorescence of -0.68 z-score.
`TGGTGCTTAGTATTTTTTTCCGTGCTA` has a log fluorescence of -1.02 z-score.

Repeated from above (set 1):
With `K36A` the binding fitness was -0.961 natural log.
For `A40F`, the binding fitness was -1.29 natural log.
`Q41R` gave a binding fitness of -1.3 natural log.
The binding fitness of `A57Q` is reported as -1.03 natural log.
The binding fitness of `V56Q` is reported as -1.52 natural log.
